{"data": "Measurements gathered from unrelated publications", "note": "Every numbered part comes from another study and shows a few of its results, in no order. Changes are numbered by the printed parent chain."}
{"data": "Set 1", "target": "CCND2, cyclin fold, Cln2 fusion (human)", "method": "yeast growth competition, sequencing", "matrix": "yeast", "notes": "weak parent motif", "relative to": "not given", "direction": "higher = stronger binding", "parent": "MICAL3 docking peptide (human); LQLRRQLSFSEDS"}
{"Change": "R5H", "normalised enrichment score": -0.0762}
{"Change": "E11H", "normalised enrichment score": -0.11}
{"Change": "L3Y", "normalised enrichment score": 0.06}
{"Change": "R5G", "normalised enrichment score": -0.0577}
{"Change": "E11Q", "normalised enrichment score": 0.276}
{"Change": "R5E", "normalised enrichment score": -0.0147}
{"Change": "Q6S", "normalised enrichment score": 0.429}
{"Change": "L7P", "normalised enrichment score": -0.111}
{"Change": "F9P", "normalised enrichment score": -0.0406}
{"Change": "S10D", "normalised enrichment score": 0.308}
{"Change": "R4N", "normalised enrichment score": 0.128}
{"Change": "R5K", "normalised enrichment score": 0.107}
{"Change": "F9N", "normalised enrichment score": -0.0472}
{"Change": "S10I", "normalised enrichment score": 0.241}
{"Change": "L3E", "normalised enrichment score": -0.153}
{"Change": "Q6G", "normalised enrichment score": 0.098}
{"Change": "R4V", "normalised enrichment score": 0.0516}
{"Change": "Q2M", "normalised enrichment score": 0.312}
{"data": "Set 2", "target": "ATF7, bZIP domain (human)", "method": "DHFR protein complementation", "matrix": "yeast", "notes": "single substitutions, most at no-binding floor", "relative to": "wild-type JUN-FOS pair", "direction": "higher = stronger binding", "parent": "JUN, bZIP domain (human); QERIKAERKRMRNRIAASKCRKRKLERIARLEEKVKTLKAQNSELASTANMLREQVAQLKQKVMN; partner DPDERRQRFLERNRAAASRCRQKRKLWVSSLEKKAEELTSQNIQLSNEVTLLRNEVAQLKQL"}
{"Change": "V35W", "binding fitness [natural log]": -1.49}
{"Change": "R30Q", "binding fitness [natural log]": -0.618}
{"Change": "S47G", "binding fitness [natural log]": -1.08}
{"Change": "E44I", "binding fitness [natural log]": -1.07}
{"Change": "Q41N", "binding fitness [natural log]": -1.25}
{"Change": "Q58S", "binding fitness [natural log]": -0.895}
{"Change": "I28Y", "binding fitness [natural log]": -1.06}
{"Change": "Q41A", "binding fitness [natural log]": -1}
{"Change": "A46S", "binding fitness [natural log]": -0.964}
{"Change": "V35F", "binding fitness [natural log]": -1.4}
{"Change": "S43E", "binding fitness [natural log]": -0.634}
{"Change": "K36L", "binding fitness [natural log]": -1.08}
{"Change": "I28Q", "binding fitness [natural log]": -0.941}
{"data": "Set 3", "target": "RNA binding protein fox-1 homolog 2, RRM domain, GST-SBP tag (RBFOX2, Homo sapiens, UniProt O43251-10, residues 100-194)", "method": "RNA Bind-n-Seq", "molecule type": "RNA", "matrix": "in vitro", "tested at": "365 nM", "notes": "natural RNA segment, single round, ends assumed", "relative to": "no-protein control", "direction": "higher = stronger binding", "Target sequence (chain)": "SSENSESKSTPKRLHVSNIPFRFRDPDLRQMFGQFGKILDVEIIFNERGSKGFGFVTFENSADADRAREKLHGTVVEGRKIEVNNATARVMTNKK"}
{"Oligonucleotide": "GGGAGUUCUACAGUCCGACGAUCAGACCCCUCUGAGGGGUAUCUGUUCUGCAGCCCCUAGUGAAAUCAUGUGAUGUGAGACAGAAACCUAAACAUGGUACUUGAUUCUAAACCUGUGCCAGUCUAUAGCCUCUUGGAAUUCUCGGGUGCCAA", "RBNS enrichment (R)": 0.442}
{"Oligonucleotide": "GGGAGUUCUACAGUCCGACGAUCCCCGCCCCCCAACAUCCCCCGGGACUAGCACACCCUGCCUUGGCGGGACCAGCGGGCAUUUGUUUUCUUGCUGACUUUGCACCUCCUUUUUUCCCCAAACACUUUGCCAGUGGAAUUCUCGGGUGCCAA", "RBNS enrichment (R)": 0.489}
{"Oligonucleotide": "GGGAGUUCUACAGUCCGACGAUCAAAUUGAAAUCUUUGCCUAGGCAGAGAAAUUGACCUAUGGUGGCUUAUUUUAGUCUUUUAUAAAUAAACUGAGUUUUUGAUAGGGUAACUUAUGGAUUGACUAGAUUCAUUGGAAUUCUCGGGUGCCAA", "RBNS enrichment (R)": 0.357}
{"Oligonucleotide": "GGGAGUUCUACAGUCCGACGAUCUGUCCUGAGCCUCUUGUUACCUUGUUACUUCAGCCUAGAGGACUGAGAAUGGAGAGCCCGAGAAGUGAAUCUUCCUUGUCCUGUAUAAUAAAUUAUUAAGUUGUGUUGGUUGGAAUUCUCGGGUGCCAA", "RBNS enrichment (R)": 0.911}
{"Oligonucleotide": "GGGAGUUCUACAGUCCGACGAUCGCUCCGGCCAGAAGCGCCGCUCCGGAAGCGUCCUGCCGCCUCUCGCUUUGCCAGCCUGGGAGCCGCGCGCAUGCGCGCUCUCUCUGCCCUUCUCACCUCUGCUUCACUCGUGGAAUUCUCGGGUGCCAA", "RBNS enrichment (R)": 0.341}
{"Oligonucleotide": "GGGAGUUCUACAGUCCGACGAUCAAUCUUCAUUUGACACCUUAAUACAUUUCUGACUGUUCUUAAAACAGUGGGGAUGCCUAUAUUUUCCUUGAGUUUUUGUGACUGACUUUGGCUAUAUAUACCUUUCUGGGUGGAAUUCUCGGGUGCCAA", "RBNS enrichment (R)": 0.455}
{"Oligonucleotide": "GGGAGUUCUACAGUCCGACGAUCUGGUCAGCACUUGUUAUUGGCCUAUGAACUAAAAGCAAAUCAAAGCUCAUAAAUCAAAGCUCAUCAGUUCCCAUAAAUGCAGUUGUCAAAGAAAAGAUUUGGUUGCCAUAUGGAAUUCUCGGGUGCCAA", "RBNS enrichment (R)": 0.464}
{"Oligonucleotide": "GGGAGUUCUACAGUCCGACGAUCUGAAGGACACAAAUGUGACCGUCCAUCCUCCUUUAGAGUUGCAUGACUUGGACACGGUAACUGUUGCAGUUUUAGACUCAGCAUUGUGACACUUCCCAAGAAGGCCAAACUGGAAUUCUCGGGUGCCAA", "RBNS enrichment (R)": 3.79}
{"Oligonucleotide": "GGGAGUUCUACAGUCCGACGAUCUUGUCUUCUUUCUCUCCUCACCCAACUCCCUUUGCCUCUCCCCAAACCGGGCCGCCAGGAUCCCUCCCCGCGGCGGCGAUGGCCCGAGCCAUGAGAGUGAGGACUUUCCGUGGAAUUCUCGGGUGCCAA", "RBNS enrichment (R)": 0.48}
{"Oligonucleotide": "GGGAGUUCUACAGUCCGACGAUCAUGAUUUUUUACAGUGUUUUAGACCUUGAAUAGCUAGUGGCUUUUGCUAAAAACUUUUGGCAACAAAAUUAAACUAAAACCAAAGUCAACAUGUGAAGUGUUUAUCAUAAUGGAAUUCUCGGGUGCCAA", "RBNS enrichment (R)": 0.433}
{"Oligonucleotide": "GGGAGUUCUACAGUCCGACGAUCACCAGAAAGUUGUGGAUUAAAGGCCUGUGAAUACUGCUGAGCUUGUUGUUUGUAGAAGACCUCACUGGGGUCUCAGAUAAGCAGGUAAAAUAAACCUCAGGGUUUAUCUUUGGAAUUCUCGGGUGCCAA", "RBNS enrichment (R)": 0.44}
{"Oligonucleotide": "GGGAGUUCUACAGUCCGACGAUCUUUCACUUGUUCCCUCUGAGGCUGAAUGCUCCAAGAGAGUGGGAACUGUGCUUCUUACUUACUGAUAUCCAGUAACUGGCACUUACUAGGUCUUCAUGAAUGUUUCCUGAUGGAAUUCUCGGGUGCCAA", "RBNS enrichment (R)": 0.544}
{"data": "Set 4", "target": "Sal-like protein 4, full length isoform B (SALL4, Homo sapiens, UniProt Q9UJQ4-2, residues 1-616)", "method": "universal PBM", "molecule type": "double-stranded DNA, one strand shown", "matrix": "in vitro", "tested at": "not given", "notes": "8-mer, flanks averaged, mean of replicates", "direction": "higher = stronger binding", "Construct (chain)": "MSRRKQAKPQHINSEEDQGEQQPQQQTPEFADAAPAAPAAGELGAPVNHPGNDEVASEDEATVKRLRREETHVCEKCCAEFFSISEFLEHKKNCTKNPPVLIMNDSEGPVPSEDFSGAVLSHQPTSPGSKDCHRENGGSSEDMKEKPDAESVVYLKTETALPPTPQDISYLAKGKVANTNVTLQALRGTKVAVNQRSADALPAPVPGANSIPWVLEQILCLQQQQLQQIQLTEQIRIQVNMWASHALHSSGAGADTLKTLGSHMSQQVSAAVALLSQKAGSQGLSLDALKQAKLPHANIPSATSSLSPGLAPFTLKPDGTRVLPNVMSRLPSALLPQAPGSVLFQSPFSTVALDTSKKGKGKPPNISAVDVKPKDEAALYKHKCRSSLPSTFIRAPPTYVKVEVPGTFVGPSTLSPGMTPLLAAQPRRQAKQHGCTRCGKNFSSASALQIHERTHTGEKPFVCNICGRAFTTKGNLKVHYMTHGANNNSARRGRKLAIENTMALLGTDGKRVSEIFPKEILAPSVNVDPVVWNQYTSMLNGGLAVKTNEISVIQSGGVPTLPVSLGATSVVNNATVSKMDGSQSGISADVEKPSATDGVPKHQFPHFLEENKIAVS"}
{"Oligonucleotide": "ACTACGCA", "E-score": -0.0413}
{"Oligonucleotide": "CACCGTAA", "E-score": 0.0471}
{"Oligonucleotide": "CACTTATC", "E-score": 0.137}
{"Oligonucleotide": "CCTATGGA", "E-score": 0.0202}
{"Oligonucleotide": "AGCAACAA", "E-score": 0.186}
{"Oligonucleotide": "GCGCCCCC", "E-score": -0.352}
{"Oligonucleotide": "GGGACACC", "E-score": -0.277}
{"Oligonucleotide": "AAGCGGCC", "E-score": -0.218}
{"Oligonucleotide": "AACGTTTG", "E-score": 0.115}
{"Oligonucleotide": "AGGCTTTC", "E-score": -0.0373}
{"Oligonucleotide": "AACGACTC", "E-score": -0.226}
{"Oligonucleotide": "ACCCATGC", "E-score": -0.029}
{"Oligonucleotide": "CAGTGGAG", "E-score": -0.0854}
{"Oligonucleotide": "ACAGACTC", "E-score": -0.0961}
{"Oligonucleotide": "AATACCCC", "E-score": -0.206}
{"Oligonucleotide": "AGTGCTTG", "E-score": 0.0816}
{"Oligonucleotide": "AAAAGGGG", "E-score": -0.108}
{"Oligonucleotide": "GTCAAGAC", "E-score": -0.222}
{"Oligonucleotide": "AGACCCGG", "E-score": -0.292}
{"Oligonucleotide": "CGTCGTAG", "E-score": -0.127}
{"note": "Repeated from above (set 1):"}
{"Change": "L7P", "normalised enrichment score": -0.111}
{"Change": "F9P", "normalised enrichment score": -0.0406}
{"Change": "S10D", "normalised enrichment score": 0.308}
{"Change": "R4N", "normalised enrichment score": 0.128}
{"Change": "R5K", "normalised enrichment score": 0.107}
{"Change": "F9N", "normalised enrichment score": -0.0472}
